Published values pooled from the literature.
Compare with care: the assays were run in different laboratories. ± gives the spread as reported.
POLB: DNA polymerase beta (POLB, Homo sapiens, UniProt P06746)
POLB I260M: DNA polymerase beta (POLB, Homo sapiens, UniProt P06746, I260M)
SCTR: Secretin receptor (SCTR, Homo sapiens, UniProt P47872)
T1: G-quadruplex RNA, benzofuranyl uridine in loop (Homo sapiens); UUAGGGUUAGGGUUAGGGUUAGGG

For `OCc1ccccc1S[C@@H]1O[C@H](CO)[C@H](O)[C@H](O)[C@H]1O`, transport read “no effect” (Sodium/glucose cotransporter 1 (SLC5A1, Homo sapiens, UniProt P13866); membrane depolarisation, FRET; CHO expressing SLC5A1; 10 µM; reference: non-transfected CHO).
For `N=C(N)NCCC[C@@H]1NC(=O)[C@H](Cc2c[nH]c3ccccc23)NC(=O)[C@H](CCCNC(=N)N)NC(=O)[C@H](Cc2c[nH]c3ccccc23)NC(=O)[C@H](CCCNC(=N)N)NC(=O)[C@H](Cc2c[nH]c3ccccc23)NC(=O)[C@H](CCCNC(=N)N)NC(=O)[C@H](Cc2c[nH]c3ccccc23)NC(=O)[C@H](CCCNC(=N)N)NC(=O)[C@H](Cc2c[nH]c3ccccc23)NC(=O)[C@H](CCCNC(=N)N)NC(=O)[C@H](Cc2c[nH]c3ccccc23)NC(=O)[C@H](CCCNC(=N)N)NC(=O)[C@H](Cc2c[nH]c3ccccc23)NC(=O)[C@H](CCCNC(=N)N)NC(=O)[C@H](Cc2c[nH]c3ccccc23)NC(=O)[C@H](CCCNC(=N)N)NC(=O)[C@H](Cc2c[nH]c3ccccc23)NC1=O`, the remaining activity was 5.6% (Cyclin-dependent kinase 2, with cyclin A1 (CDK2, Homo sapiens, UniProt P24941); kinase activity, Reaction Biology radiometric; concentration not given, together with: ATP 200 µM; reference: DMSO).
`COc1cc2c(cc1OC)C(c1ccc(F)cc1F)N(CCCOc1ccc(CCC(=O)O)cc1)CC2` (stereo not shown) — result for transactivation: “inhibited” (Peroxisome proliferator-activated receptor gamma (PPARG, Homo sapiens, UniProt P37231, H477A); agonist, reporter gene; CHO; 10 µM; reference: wild type).
For `C[n+]1cn(C2OC(COP(=O)([O-])OP(=O)(O)OP(=O)(O)OCC3OC(n4cnc5c(=O)[nH]c(N)nc54)C(O)C3O)C(O)C2O)c2nc(NCc3cc(-c4ccccc4)no3)[nH]c(=O)c21` (stereo not shown), the melting temperature was 53 °C (Eukaryotic translation initiation factor 4E (Eif4e, Mus musculus, UniProt P63073); differential scanning fluorimetry; 100 µM).
`Nc1nc2c(ncn2[C@H]2C[C@H](O)[C@@H](COP(=O)(O)OP(=O)(O)[C@H](F)P(=O)(O)O)O2)c(=O)[nH]1` has a kpol of 18 ± 3 s⁻¹ (POLB; substrate, quench-flow kinetics; pH 8.0, 37 °C, incorporation opposite C in gapped DNA).
For `CC(C)Cn1c(SCC(=O)N2CCc3ccccc3C2)nc2cc(Cl)ccc2c1=O`, IC50 read “inactive” (Corticotropin-releasing factor receptor 2 (CRHR2, Homo sapiens, UniProt Q13324); calcium signal, antagonist; without CRF-binding protein, together with: CRF at EC80).
With `CCCCCCc1ccc(Oc2ccccc2C#N)c(O)c1` the residence time was 107 min (Enoyl-[acyl-carrier-protein] reductase [NADPH] FabI (Staphylococcus aureus, UniProt Q6GI75); binding).
`Nc1nc2c(ncn2[C@H]2C[C@H](O)[C@@H](COP(=O)(O)OP(=O)(O)C(Cl)(Cl)P(=O)(O)O)O2)c(=O)[nH]1` gave a kpol/Kd of 11 ± 2.8 M⁻¹ s⁻¹ (POLB I260M; nucleotide incorporation, substrate, single turnover kinetics; dG misincorporation opposite A).
With `CCOC(=O)CNc1nc(-c2ccccc2)cc(C(F)(F)F)n1` the Emax was 47 ± 12% (SCTR; cAMP accumulation, positive allosteric modulator; CHO-K1 overexpressing SCTR; together with: EC10-EC20 secretin peptide mix; reference: EC95 peptide mix).
For `Nc1nc2c(ncn2C2CC(O)C(COP(=O)(O)OP(=O)(O)C(Cl)P(=O)(O)O)O2)c(=O)[nH]1` (mixture of isomers), the kpol/Kd was 8.5 ± 4.1 M⁻¹ s⁻¹ (POLB I260M; nucleotide incorporation, substrate, single turnover kinetics; dG misincorporation opposite A).
`COC(=O)C1=Cc2ccccc2S1(=O)=O` — result for “E3 ligase activity”: “no effect” (E3 ubiquitin-protein ligase Praja-1 (Pja1, Mus musculus, UniProt O55176); in vitro ubiquitination; 0, 5, 10 µM).
Under “R3 fibril reduction”, `CCC1CC2C(C)=CC3C(=O)CCCC3C=CC(C)=CC2C(=O)O1` (stereo not shown) is recorded as 22.1% (Microtubule-associated protein tau, R3 peptide oligomers (MAPT, Homo sapiens, UniProt P10636); thioflavin T fluorescence; 500 µM).
The Dmax of `N#Cc1cccc(-c2ccc(=O)n(Cc3cccc(-c4ncc(OCC5CCN(CC(=O)N6CCN(CCNc7ccc8c(c7)C(=O)N(C7CCC(=O)NC7=O)C8=O)CC6)CC5)cn4)c3)n2)c1` (stereo not shown) is reported as greater than 99% (Hepatocyte growth factor receptor (MET, Homo sapiens, UniProt P08581); degrader; EBC-1; concentration not given).
`CC[C@H](C)[C@H](NC(=O)[C@H](CC(C)C)NC(=O)[C@H](C)NC(=O)c1ccc(CN2CCNCC2)cc1)C(=O)N[C@@H](Cc1ccccc1)C(N)=O`: IC50 “inactive” (Cyclin-A2, with CDK2 (CCNA2, Homo sapiens, UniProt P20248); binding to cyclin groove, fluorescence polarization competition).
With `Clc1ccc2c(NCc3ccc(OC4CCOCC4)cc3)ccnc2c1` the activation was greater than 1.5 fold (Nuclear receptor subfamily 4 group A member 2, ligand binding domain (Homo sapiens, UniProt P43354); reporter gene, agonist, Gal4-Nurr1 hybrid reporter; HEK-293T; 30 µM, crude library product; reference: vehicle (0.1% DMSO)).
With `COc1ccc(-c2cc(C(F)(F)F)nc(NCc3ccccc3)n2)cc1` the Emax was 151 ± 11% (SCTR; increase of tracer binding, TR-FRET; HEK293 membranes; together with: Fluo-Sec 6 nM).
`[3H]C([3H])([3H])c1cnccc1CN1C[C@@H](c2cc(F)c(F)c(F)c2)CC1=O` — result for “specific binding ratio”: roughly 73 fold (Synaptic vesicle glycoprotein 2A (SV2A, Homo sapiens, UniProt Q7L0J3); radioligand binding; human control, frontal cortex; reference: P2 fraction over homogenate).
With `NCCOc1cc(C(=O)Nc2cc(OCCN)c3ccccc3n2)nc(C(=O)Nc2cc(OCCN)c3ccccc3n2)c1` the Kd was 260 nM (T1, G-quadruplex RNA, benzofuranyl uridine in loop (Homo sapiens); fluorescence titration; pH 7.5, 20 °C, KCl 100 mM, apparent, parallel G-quadruplex).
The enrichment factor of `NC(=O)C1CCNC(=O)C(CCCNC(=O)c2cnccn2)NC(=O)C(CC2CCCCC2)NC(=O)C(CC=Cc2ccccc2)NC(=O)C=CC(=O)N1` (stereo not shown) is reported as 1.6 (Vascular endothelial growth factor receptor 2 (KDR, Homo sapiens, UniProt P35968); DNA-templated library selection; one selection round).
`Nc1nc2c(ncn2[C@H]2C[C@H](O)[C@@H](COP(=O)(O)OP(=O)(O)C(F)(F)P(=O)(O)O)O2)c(=O)[nH]1` has a kpol of 0.006 ± 0.0006 s⁻¹ (POLB; nucleotide incorporation rate, substrate, single-turnover kinetics; single-nucleotide gapped DNA; 37 °C, wild type, misincorporation, together with: dGTP opposite template A).
For `[11CH3]c1ccc2nc(C3CCC3)n(-c3ccc4[nH]ncc4c3)c2n1`, the BPND was 1.22 (Voltage-dependent calcium channel gamma-8 subunit (Rattus norvegicus, UniProt Q8VHW5); PET, SRTM; Sprague-Dawley rat, hippocampus; baseline, unit not given; reference: cerebellum).
`CC(C=O)Cc1ccc(C(C)(C)C)cc1` (stereo not shown): “GFP expression increase” 3.8 fold (Olfactory receptor 10S1 (OR10S1, Homo sapiens, UniProt Q8NGN2); reporter gene, agonist; yeast; reference: empty-vector control).
With `OC[C@H]1Oc2c(Cc3ccccc3)c(Cc3ccccc3)cc3c2[C@@H](OC3)[C@H]1O` the affinity increase was greater than 3 (Galectin-8, N-terminal CRD (LGALS8, Homo sapiens, UniProt O00214); fluorescence polarization; unit not given; reference: methyl beta-galactoside).
`OCC1CCCN(CCNc2cc(-c3ccccc3)nc3ccnn23)C1` (stereo not shown) has a signal attenuation of 56.3 ± 4.7% (DNA dC->dU-editing enzyme APOBEC-3A (Homo sapiens, UniProt P31941); binding, 1H CPMG NMR).
The Emax of `COc1ccc(-c2cc(C(F)(F)F)nc(NCc3ccccc3)n2)cc1OC` is reported as 20% (SCTR; cAMP, agonist).
`CC[C@H](C)[C@H](NC(=O)[C@@H](NC(=O)[C@H](CS)NC(=O)[C@H](CCSC)NC(C)=O)[C@@H](C)O)C(=O)N[C@@H](CC(=O)O)C(=O)N[C@@H](Cc1ccc(F)cc1)C(=O)N[C@@H](CC(=O)O)C(=O)N[C@@H](CCC(=O)O)C(=O)N[C@@H](Cc1ccc(O)cc1)C(=O)N[C@@H](CCCNC(=N)N)C(=O)N[C@@H](Cc1ccc(F)cc1)C(=O)N[C@@H](CCCNC(=N)N)C(=O)N[C@@H](CCCCN)C(=O)N[C@H](C(N)=O)[C@@H](C)O` — result for “binding affinity fold reduction”: 11 fold (human BRCA1 BRCT E1698A; fluorescence polarization; concentration not given, FAM-labelled compound; reference: wild-type BRCA1 BRCT, higher = weaker binding).
`Cc1cn([C@H]2C[C@H](O)[C@@H](COP(=O)(O)OP(=O)(O)C(Cl)(Cl)P(=O)(O)O)O2)c(=O)[nH]c1=O` has a kpol/Kd of 15000 ± 7000 M⁻¹ s⁻¹ (POLB; substrate, single turnover kinetics).
With `CCCCCCCC/C=C\CCCCCCCC(=O)O[C@H]1CCCO[C@H]1COP(=O)(O)S` (stereo partly shown) the Emax was 74% (Lysophosphatidic acid receptor 2 (LPAR2, Homo sapiens, UniProt Q9HBW0); agonist, TGFα shedding).
